Published values from different studies.
“And” joins repeats or separate records; there may be more than shown. ± gives the spread as reported.

SMILES | test | test system | setting | Cmax
CC[C@H](C)CCCCC(=O)N[C@@H](CCN)C(=O)N[C@H](C(=O)N[C@@H](CCN)C(=O)N[C@H]1CCNC(=O)[C@H]([C@@H](C)O)NC(=O)[C@H](CCN)NC(=O)[C@H](CCN)NC(=O)[C@H](CC(C)C)NC(=O)[C@@H](Cc2ccccc2)NC(=O)[C@H](CCN)NC1=O)[C@@H](C)O | UPLC-MS/MS | intensive care patients Overall, plasma | iv, dose not given, end of infusion, steady state, polymyxin B dosing | 6300 ± 1900 ng/mL
CS(=O)(=O)n1cc2c(n1)CN([C@H]1CO[C@H](c3cc(F)ccc3F)[C@@H](N)C1)C2 | – | healthy Japanese men, plasma | oral, 25 mg once weekly, day 15 | 701 nM
O=C(c1cc(Cc2n[nH]c(=O)c3ccccc23)ccc1F)N1CCN(C(=O)C2CC2)CC1 | – | cancer patients | oral, 100 mg twice daily, day 1 | 1700 ± 800 ng/mL
CCOc1ccc(Cc2cc([C@@H]3S[C@H](CO)[C@@H](O)[C@H](O)[C@H]3O)c(OC)cc2C)cc1 | – | Japanese type 2 diabetes patients, plasma | oral, 5 mg single dose, eGFR 45-59 mL/min/1.73 m^2 | 252 ± 67.5 ng/mL
COc1ccc(-n2nc(C(N)=O)c3c2C(=O)N(c2ccc(N4CCCCC4=O)cc2)CC3)cc1 | – | healthy Chinese subjects | oral, 10 mg twice daily, day 9 | 336 ng/mL
Cc1ccc(NC(=O)c2ccc(CN3CCN(C)CC3)cc2)cc1Nc1nccc(-c2cncc(-c3oncc3C)c2)n1 | – | healthy volunteers, plasma | oral, 25.0 mg once daily, day 1, 7-day dosing, mean | 1040 ng/mL
CO/N=C1\C[C@]2(C[C@@H]3C[C@@H](C/C=C(\C)C[C@@H](C)/C=C/C=C4\CO[C@@H]5[C@H](O)C(C)=C[C@@H](C(=O)O3)[C@]45O)O2)O[C@H](/C(C)=C/C(C)C)[C@H]1C | – | parasitized Corriedale lambs, plasma | subcutaneous, 0.2 mg/kg | 26.2 ± 6.82 ng/mL
CCN1CCN(Cc2ccc(Nc3ncc(F)c(-c4cc(F)c5nc(C)n(C(C)C)c5c4)n3)nc2)CC1 | population PK model | patients, plasma | oral, 200 mg single dose | 123 ng/mL
CCc1cc2c(cc1N1CCC(N3CCOCC3)CC1)C(C)(C)c1[nH]c3cc(C#N)ccc3c1C2=O | – | severe hepatic impairment patients, plasma, total | oral, 300 mg single dose, fed | 93.5 ng/mL
Cc1cc(Nc2cc3ncccc3c(N[C@@H]3C[C@H]4CC[C@@H](C3)N4CCC#N)n2)n[nH]1 | – | pregnant rabbit, maternal plasma | oral, 10 mg/kg/day, gestation day 19 | 11.4 ng/mL
N[C@@H](Cc1ccc(O)c(O)c1)C(=O)O | – | rhesus and cynomolgus macaque, plasma | subcutaneous, dose not given, PDE9 inhibitor vehicle co-dosed | 86.5 ng/mL and 79.2 ng/mL
Cc1nc(-c2ccc(OCC(C)C)c(C#N)c2)sc1C(=O)O | – | healthy men, plasma | oral, 80 mg once daily, day 14, arithmetic mean, with: verinurad 2.5 mg | 1750 ng/mL
COc1cccc(N2CCN(C3=Nc4c(F)cccc4[C@H](CC(=O)O)N3c3cc(C(F)(F)F)ccc3OC)CC2)c1 | – | healthy women, plasma | intravenous infusion, 240 mg, day 1, single dose, 30-min infusion | 14700 ± 1210 ng/mL
C[C@]12C=CC(=O)C=C1CC[C@@H]1[C@@H]2[C@@H](O)C[C@@]2(C)[C@H]1C[C@H]1O[C@@H](C3CCCCC3)O[C@]12C(=O)CO | – | children with asthma, serum | inhaled, 160 µg ciclesonide, day 7, HFA-MDI without spacer, steady state | 0.141 ± 0.013 ng/mL
CON(C)C(=O)N1N=C(c2cc(F)ccc2F)S[C@@]1(CCCN)c1ccccc1 | – | patients, plasma | intravenous, dose not given, day 3, cycle 1 day 3 | 35.6 ng/mL
Cc1ccc(Sc2ccccc2N2CCNCC2)c(C)c1 | – | healthy men, plasma | oral, 5 mg once daily, fed, day 12 | 8 ng/mL
O=C(CCCCCCC(=O)Nc1ccccc1)NO | – | cancer patients, serum | oral, 600 mg, cycle 1 day 2, with: flavopiridol 30 to 30 mg/m^2 | 1160 nM
